Measured values from different studies.
Numbered parts are unrelated; each lists some results of a single study. Values joined by “and” are separate records of one study, mostly repeats; a detail may differ.
Chain of UniProt Q96Q40 (whole entry, looked up): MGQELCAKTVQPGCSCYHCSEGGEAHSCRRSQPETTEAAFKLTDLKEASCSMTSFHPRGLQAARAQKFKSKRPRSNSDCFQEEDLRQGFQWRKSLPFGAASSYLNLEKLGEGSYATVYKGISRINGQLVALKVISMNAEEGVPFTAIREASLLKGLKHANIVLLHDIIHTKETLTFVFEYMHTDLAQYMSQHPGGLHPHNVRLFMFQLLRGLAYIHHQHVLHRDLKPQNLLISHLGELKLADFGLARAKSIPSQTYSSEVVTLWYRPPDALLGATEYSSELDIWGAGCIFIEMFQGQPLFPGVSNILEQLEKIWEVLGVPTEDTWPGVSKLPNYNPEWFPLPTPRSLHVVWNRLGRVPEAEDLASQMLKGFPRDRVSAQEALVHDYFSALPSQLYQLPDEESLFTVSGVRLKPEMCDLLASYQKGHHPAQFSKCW
Chain of UniProt P52564 (whole entry, looked up): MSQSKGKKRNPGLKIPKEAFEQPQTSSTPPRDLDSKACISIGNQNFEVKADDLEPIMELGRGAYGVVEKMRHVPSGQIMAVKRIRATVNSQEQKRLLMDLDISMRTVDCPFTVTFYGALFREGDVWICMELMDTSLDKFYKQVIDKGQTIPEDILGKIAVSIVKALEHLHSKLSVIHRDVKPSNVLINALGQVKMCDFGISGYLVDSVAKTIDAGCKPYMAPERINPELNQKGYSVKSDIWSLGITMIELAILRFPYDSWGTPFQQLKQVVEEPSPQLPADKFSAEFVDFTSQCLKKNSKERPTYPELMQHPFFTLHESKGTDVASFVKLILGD
Chain of UniProt P51812 (whole entry, looked up): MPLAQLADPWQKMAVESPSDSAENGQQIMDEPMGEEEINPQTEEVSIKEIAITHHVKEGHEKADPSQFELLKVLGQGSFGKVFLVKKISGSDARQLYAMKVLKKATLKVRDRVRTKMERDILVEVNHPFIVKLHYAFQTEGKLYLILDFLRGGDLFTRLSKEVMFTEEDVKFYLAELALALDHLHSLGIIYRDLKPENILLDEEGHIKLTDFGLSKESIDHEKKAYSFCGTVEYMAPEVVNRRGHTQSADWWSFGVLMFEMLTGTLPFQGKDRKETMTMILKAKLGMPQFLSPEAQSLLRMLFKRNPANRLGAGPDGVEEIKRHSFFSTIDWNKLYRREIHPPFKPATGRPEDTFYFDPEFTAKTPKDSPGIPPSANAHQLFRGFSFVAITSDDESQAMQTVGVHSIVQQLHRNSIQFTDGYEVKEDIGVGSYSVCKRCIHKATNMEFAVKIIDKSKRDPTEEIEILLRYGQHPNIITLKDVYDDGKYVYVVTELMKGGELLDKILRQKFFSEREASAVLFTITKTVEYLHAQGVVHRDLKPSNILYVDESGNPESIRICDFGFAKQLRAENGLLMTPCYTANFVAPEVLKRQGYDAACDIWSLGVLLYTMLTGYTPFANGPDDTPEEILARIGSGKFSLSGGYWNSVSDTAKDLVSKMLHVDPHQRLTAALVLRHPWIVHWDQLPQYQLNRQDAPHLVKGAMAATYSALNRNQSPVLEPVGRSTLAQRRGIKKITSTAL
Chain of UniProt Q8NEB9 (whole entry, looked up): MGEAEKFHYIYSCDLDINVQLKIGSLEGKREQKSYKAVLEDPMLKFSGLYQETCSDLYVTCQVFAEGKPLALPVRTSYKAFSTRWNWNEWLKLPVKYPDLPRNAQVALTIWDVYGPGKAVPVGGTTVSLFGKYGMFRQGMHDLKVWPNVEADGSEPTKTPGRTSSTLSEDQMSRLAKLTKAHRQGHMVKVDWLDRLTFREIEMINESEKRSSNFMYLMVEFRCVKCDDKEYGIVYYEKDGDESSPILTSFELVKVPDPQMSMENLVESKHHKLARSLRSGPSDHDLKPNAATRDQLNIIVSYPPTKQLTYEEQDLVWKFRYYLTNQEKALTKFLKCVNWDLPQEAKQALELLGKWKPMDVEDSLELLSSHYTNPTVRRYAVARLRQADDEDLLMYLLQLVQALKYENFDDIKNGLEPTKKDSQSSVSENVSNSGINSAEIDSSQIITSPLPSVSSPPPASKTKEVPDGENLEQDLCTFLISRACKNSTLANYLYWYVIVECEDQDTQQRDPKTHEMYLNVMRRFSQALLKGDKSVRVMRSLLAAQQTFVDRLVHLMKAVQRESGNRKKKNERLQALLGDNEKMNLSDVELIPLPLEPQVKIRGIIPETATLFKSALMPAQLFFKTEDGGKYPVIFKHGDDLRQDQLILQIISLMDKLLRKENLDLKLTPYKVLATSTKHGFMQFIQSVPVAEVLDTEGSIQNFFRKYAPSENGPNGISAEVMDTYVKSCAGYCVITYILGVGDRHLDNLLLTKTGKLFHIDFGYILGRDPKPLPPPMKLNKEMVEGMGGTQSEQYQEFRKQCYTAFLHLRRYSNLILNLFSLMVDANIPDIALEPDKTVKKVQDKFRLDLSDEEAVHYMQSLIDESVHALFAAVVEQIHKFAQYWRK
Chain of UniProt Q9H1R3 (whole entry, looked up): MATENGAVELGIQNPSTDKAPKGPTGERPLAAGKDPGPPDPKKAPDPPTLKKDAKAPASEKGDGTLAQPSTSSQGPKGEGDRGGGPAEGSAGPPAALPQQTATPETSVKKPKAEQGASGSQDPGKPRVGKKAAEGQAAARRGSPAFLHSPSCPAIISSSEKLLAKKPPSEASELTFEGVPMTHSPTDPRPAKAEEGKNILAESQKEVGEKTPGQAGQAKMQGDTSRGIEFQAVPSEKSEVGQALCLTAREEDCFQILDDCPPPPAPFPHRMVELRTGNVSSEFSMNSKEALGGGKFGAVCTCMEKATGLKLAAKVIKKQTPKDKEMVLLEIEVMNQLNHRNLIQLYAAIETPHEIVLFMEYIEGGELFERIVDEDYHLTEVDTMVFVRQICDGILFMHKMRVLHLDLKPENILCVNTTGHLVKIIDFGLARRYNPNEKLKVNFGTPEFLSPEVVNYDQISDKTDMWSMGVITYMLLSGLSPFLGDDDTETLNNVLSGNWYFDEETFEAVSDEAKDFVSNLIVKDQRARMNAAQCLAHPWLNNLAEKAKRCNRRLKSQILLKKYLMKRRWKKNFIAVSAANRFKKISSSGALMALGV

Sample 1
Target: Serine/threonine-protein kinase MARK1 (MARK1, Homo sapiens, UniProt Q9P0L2)
Chain of UniProt Q9P0L2 (whole entry, looked up): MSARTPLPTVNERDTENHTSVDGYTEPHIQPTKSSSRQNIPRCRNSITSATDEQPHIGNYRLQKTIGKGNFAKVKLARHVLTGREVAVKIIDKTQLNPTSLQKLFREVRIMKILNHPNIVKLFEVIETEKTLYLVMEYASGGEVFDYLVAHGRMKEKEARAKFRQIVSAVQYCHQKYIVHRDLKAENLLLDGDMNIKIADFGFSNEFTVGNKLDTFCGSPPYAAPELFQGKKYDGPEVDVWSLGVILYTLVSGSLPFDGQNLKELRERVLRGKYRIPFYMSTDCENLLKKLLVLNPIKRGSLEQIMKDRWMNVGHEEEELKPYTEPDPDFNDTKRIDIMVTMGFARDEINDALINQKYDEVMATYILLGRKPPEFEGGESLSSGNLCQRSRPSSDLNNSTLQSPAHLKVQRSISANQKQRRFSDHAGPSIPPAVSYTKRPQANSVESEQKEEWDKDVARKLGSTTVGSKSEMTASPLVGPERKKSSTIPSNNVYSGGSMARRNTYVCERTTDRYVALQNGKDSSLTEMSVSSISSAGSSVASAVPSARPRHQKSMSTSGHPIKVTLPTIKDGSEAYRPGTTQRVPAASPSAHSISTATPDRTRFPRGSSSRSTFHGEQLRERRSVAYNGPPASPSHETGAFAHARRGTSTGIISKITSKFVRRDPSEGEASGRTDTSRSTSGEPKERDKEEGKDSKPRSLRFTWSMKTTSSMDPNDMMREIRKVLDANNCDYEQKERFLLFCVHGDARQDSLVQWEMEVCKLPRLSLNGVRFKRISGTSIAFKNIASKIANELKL
Observed: enzyme activity
Action: inhibitor
Tested at: 0.5 µM
Reference: control
Quantity: remaining activity
Compound = N#Cc1cnc2cnc(NCc3cccnc3)cc2c1Nc1ccc(F)c(Cl)c1; result = 91.6%
Compound = CCCCc1c(-c2ccc(OC)cc2)[nH]c2nccnc12; result = 92.9%
Compound = O=C(c1cc2cc(O)ccc2[nH]1)c1cc2cc(O)ccc2[nH]1; result = 66.3%
Compound = COc1ccc(COc2ccc(Cc3cnc(N)nc3N)cc2OC)cc1; result = 103%
Compound = COc1ccc2c(c1)c(C1=C(c3c[nH]c4ccccc34)C(=O)NC1=O)cn2CCCN(C)C; result = 93.2%
Compound = O=C1Cc2c([nH]c3ccc(Br)cc23)-c2ccccc2N1; result = 88.3%
Compound = O=C1Nc2ccccc2/C1=C\c1c(Cl)[nH]c2ccccc12; result = 96%
Compound = O=C1Nc2ccc(Br)cc2/C1=C/c1cc2c([nH]1)CCCC2; result = 69%
Compound = Cc1ccc(S(=O)(=O)/C=C/C#N)cc1; result = 102%
Compound = CCCNC(=O)Nc1ccc(Oc2ncnc3cc(OC)c(OC)cc23)cc1Cl; result = 97.6%
Compound = O=C1NC(=O)c2c1c1c3ccccc3[nH]c1n1cncc21; result = 36.7%

Sample 2
Structure (SMILES): CSc1cccnc1N1CCN(Cc2nc3ccccc3[nH]2)CC1
Method: competition with immobilised ligand
Tested at: 1 µM
Quantity: remaining binding
target = TNNI3K (Homo sapiens, UniProt Q59H18); test = cell-free assay; result = 100%
target = RET (Homo sapiens, UniProt P07949, M918T); test = cell-free assay; result = 99%
target = MYLK2 (Homo sapiens, UniProt Q9H1R3); test = binding; result = 100%
target = FLT3 (Homo sapiens, UniProt P36888, K663Q); test = cell-free assay; result = 93%
target = DDR2 (Homo sapiens, UniProt Q16832); test = cell-free assay; result = 89%
target = EIF2AK2 (Homo sapiens, UniProt P19525); test = cell-free assay; result = 100%
target = PIK3C3 (Homo sapiens, UniProt Q8NEB9); test = cell-free assay; result = 94%
target = Ribosomal protein S6 kinase alpha-3, C-terminal kinase domain (RPS6KA3, Homo sapiens, UniProt P51812); test = cell-free assay; result = 77%
target = CDK15 (Homo sapiens, UniProt Q96Q40); test = cell-free assay; result = 100%
target = WEE2 (Homo sapiens, UniProt P0C1S8); test = cell-free assay; result = 100%
target = MAP2K6 (Homo sapiens, UniProt P52564); test = cell-free assay; result = 100%
target = CAMKK2 (Homo sapiens, UniProt Q96RR4); test = cell-free assay; result = 100%
target = ALK (Homo sapiens, UniProt Q9UM73, C1156Y); test = cell-free assay; result = 93%
target = KDR (Homo sapiens, UniProt P35968); test = cell-free assay; result = 89%
target = PKN2 (Homo sapiens, UniProt Q16513); test = cell-free assay; result = 62%
target = STK39 (Homo sapiens, UniProt Q9UEW8); test = cell-free assay; result = 100%
target = FER (Homo sapiens, UniProt P16591); test = cell-free assay; result = 100%

Sample 3
Compound: O=C(O)c1ccccc1Nc1ccccc1
Tested at: 10 µM
Quantity: normalized current
ANO1 del476-501: Anoctamin-1 (ANO1, Homo sapiens, UniProt Q5XXA6, del476-501)
Chain of UniProt Q5XXA6 (whole entry, unmodified, looked up): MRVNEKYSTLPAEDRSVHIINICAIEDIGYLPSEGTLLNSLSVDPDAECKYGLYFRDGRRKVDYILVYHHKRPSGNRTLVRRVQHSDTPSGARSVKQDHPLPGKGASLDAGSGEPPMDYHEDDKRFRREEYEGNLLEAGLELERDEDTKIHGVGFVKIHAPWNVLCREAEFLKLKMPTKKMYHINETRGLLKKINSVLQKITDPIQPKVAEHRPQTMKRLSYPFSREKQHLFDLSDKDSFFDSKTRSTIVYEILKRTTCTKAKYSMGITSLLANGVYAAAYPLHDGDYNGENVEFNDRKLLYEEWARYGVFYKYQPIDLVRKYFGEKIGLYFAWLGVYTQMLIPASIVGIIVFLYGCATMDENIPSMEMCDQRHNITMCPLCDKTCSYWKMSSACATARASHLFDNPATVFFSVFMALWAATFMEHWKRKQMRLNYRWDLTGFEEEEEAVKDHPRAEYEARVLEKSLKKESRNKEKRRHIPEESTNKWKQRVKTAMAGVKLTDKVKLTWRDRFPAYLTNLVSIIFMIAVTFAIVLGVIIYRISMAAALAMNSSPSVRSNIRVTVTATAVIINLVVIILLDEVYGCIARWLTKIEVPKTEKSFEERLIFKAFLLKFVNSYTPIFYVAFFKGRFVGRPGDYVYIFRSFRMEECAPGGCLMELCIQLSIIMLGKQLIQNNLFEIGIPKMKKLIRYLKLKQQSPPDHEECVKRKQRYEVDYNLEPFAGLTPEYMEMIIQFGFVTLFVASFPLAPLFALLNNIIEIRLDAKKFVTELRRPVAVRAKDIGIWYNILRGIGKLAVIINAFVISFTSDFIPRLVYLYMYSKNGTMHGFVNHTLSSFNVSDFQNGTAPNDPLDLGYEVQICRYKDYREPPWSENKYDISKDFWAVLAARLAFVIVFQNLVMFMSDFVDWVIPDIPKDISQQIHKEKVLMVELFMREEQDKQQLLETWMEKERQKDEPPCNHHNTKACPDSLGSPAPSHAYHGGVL
ANO1 del476-501/F628A/F803A: Anoctamin-1 (ANO1, Homo sapiens, UniProt Q5XXA6, del476-501/F628A/F803A)
ANO1 del476-501/R541A: Anoctamin-1 (ANO1, Homo sapiens, UniProt Q5XXA6, del476-501/R541A)
target = ANO1 del476-501; test = ion current, patch clamp; how to read = reference: before drug; result = 0.696 and 0.813 and 0.849 and 0.801 and 0.785 and 0.683 and 0.795 and 0.682
target = ANO1 del476-501/F628A/F803A; test = chloride current, inhibitor; system = human; setting = mutant, non-pore, F602A/F777A; result = 0.784
target = ANO1 del476-501/R541A; test = chloride current, inhibitor, whole-cell patch clamp; setting = R515A pore mutant; result = 1.05 and 0.966 and 1.01 and 1.02 and 0.992
target = ANO1 del476-501; test = chloride current, inhibitor; system = human; setting = wild type; result = 0.763
target = ANO1 del476-501/R541A; test = chloride current, inhibitor; system = human; setting = pore mutant R515A; result = 1.01
target = ANO1 del476-501/F628A/F803A; test = chloride current, inhibitor, whole-cell patch clamp; setting = F602A/F777A non-pore mutant; result = 0.792 and 0.882 and 0.736 and 0.745 and 0.83 and 0.72

Sample 4
Host: human
Sample: microsomes or S9
Tested at: 2 µM
Time: 0.5 h
Quantity: remaining compound
Compound = CCc1cc2c(cc3c(=O)n(CC(=O)NCC(C)c4ccccc4)nc(CC)n32)s1 (centres unmarked); result = 0.142%
Compound = CS(=O)(=O)N[C@H]1CC[C@H](Nc2ncnc3[nH]cc(-c4cc(Cl)c(O)c(Cl)c4)c23)CC1; result = > 100%
Compound = Cc1noc(C)c1CC(=O)NCC12CCC=C1NC(=O)CC2 (centres unmarked); result = > 99%
Compound = CCOC(=O)Nc1cc(-n2c(=O)nc(N(C)C)n(C)c2=O)c(F)cc1Cl; result = > 99.9%
Compound = O=c1cc(-c2ccccc2)oc2ccccc12; result = 8.1%
Compound = CC(Oc1cc(-n2nc3c(c2Cl)CCCC3)c(F)cc1Cl)C(C)(C)O (centres unmarked); result = 47.4%
Compound = O=C(NC1Cc2ccccc2C1)NC1CCCn2ncnc21 (centres unmarked); result = 87.1%

Excerpt of the above (sample 3):
target = ANO1 del476-501; test = ion current, patch clamp; how to read = reference: before drug; result = 0.696 and 0.813 and 0.849 and 0.801 and 0.785 and 0.683 and 0.795 and 0.682
target = ANO1 del476-501/F628A/F803A; test = chloride current, inhibitor; system = human; setting = mutant, non-pore, F602A/F777A; result = 0.784
target = ANO1 del476-501/R541A; test = chloride current, inhibitor, whole-cell patch clamp; setting = R515A pore mutant; result = 1.05 and 0.966 and 1.01 and 1.02 and 0.992
target = ANO1 del476-501; test = chloride current, inhibitor; system = human; setting = wild type; result = 0.763
target = ANO1 del476-501/R541A; test = chloride current, inhibitor; system = human; setting = pore mutant R515A; result = 1.01
target = ANO1 del476-501/F628A/F803A; test = chloride current, inhibitor, whole-cell patch clamp; setting = F602A/F777A non-pore mutant; result = 0.792 and 0.882 and 0.736 and 0.745 and 0.83 and 0.72
